Results of several laboratories.
Protocols differ between the studies behind these lines.
RPS6KA3 N-terminal kinase domain: Ribosomal protein S6 kinase alpha-3, N-terminal kinase domain (RPS6KA3, Homo sapiens, UniProt P51812)
RPS6KA3 C-terminal kinase domain: Ribosomal protein S6 kinase alpha-3, C-terminal kinase domain (RPS6KA3, Homo sapiens, UniProt P51812)

Compound	target	test	conditions	how to read	remaining binding [%]
Cc1c[nH]c2nccc(-c3ccc(C(=O)N[C@@H]4c5c(F)cc(C(F)F)cc5C[C@@H]4O)cn3)c12	RPS6KA3 N-terminal kinase domain	binding, competition with immobilised ligand	3 µM		5.1
COc1c(Cl)cccc1Nc1c(-c2ccncc2C#C[C@@]2(C)CCCN2C(=O)/C=C/CN(C)C)[nH]c2c1C(=O)NCC2	RPS6KA3 C-terminal kinase domain	binding, competition with immobilised ligand	3 µM		100
CC(C)=CC1OC(C)(C)C2C=C3C(=O)C(Cl)=CC(O)C3C3C(O)C4OC4C(=O)C132 (centres unmarked)	RPS6KA3 C-terminal kinase domain	cell-free assay, competition with immobilised ligand	10 µM		88
C=CC(=O)N1CCc2ccc(-n3c(=O)ccc4cnc5ccc(-c6cnn(C)c6)cc5c43)cc21	RPS6KA3 N-terminal kinase domain	KINOMEscan	1 µM	relative to: DMSO control	100
CNC(=O)C1CCN(c2cc(C)c(F)cc2NC(=O)c2ccc(-c3cc(O)ccc3C)c(C)c2)CC1	RPS6KA3 N-terminal kinase domain	binding, competition with immobilised ligand	1 µM		86
CCN1CCN(Cc2ccc(C(=O)Nc3ccc(C)c(NCc4cnc5[nH]ccc5c4OC)c3)cc2C(F)(F)F)CC1	RPS6KA3 C-terminal kinase domain	binding, competition with immobilised ligand	1 µM		100
CNC1C[S+]2CC[S+]3CC[S+](C1)[Ru-4]321([N]=C=S)[n]2c3ccc(OC)cc3c3c4c(c5cc(F)c[n+]1c5c32)C(=O)NC4=O (centres unmarked)	RPS6KA3 C-terminal kinase domain	KinomeScan	0.1 µM	relative to: untreated	100
CN1CCN(Cc2ccc(NC(=O)c3cccc(C#Cc4cnc(N)c5ncccc45)c3)cc2C(F)(F)F)CC1	RPS6KA3 N-terminal kinase domain	cell-free assay, competition with immobilised ligand	0.5 µM		21
Cc1cnc2nc1Nc1cccc(c1)COC/C=C/COCc1cc(ccc1OCCN1CCOCC1)N2	RPS6KA3 N-terminal kinase domain	binding, competition with immobilised ligand	0.1 µM		65
COc1ccc(NC(=O)Nc2ccc3c(c2)C(=O)N(C(C)CO)CC(C)C(CN(C)Cc2ccc4c(c2)OCO4)O3)cc1 (centres unmarked)	RPS6KA3 N-terminal kinase domain	binding, competition with immobilised ligand	10 µM		80
COc1cc(Nc2nc(C)cc(-c3cnn4nc(OC)ccc34)n2)cc(C(F)(F)F)c1	RPS6KA3 N-terminal kinase domain	binding, competition with immobilised ligand	1 µM		77
C=CC(=O)N1CCCC(n2c(=O)c3ncccc3n(Cc3ccc(Oc4ccccc4)cc3)c2=O)C1 (centres unmarked)	RPS6KA3 C-terminal kinase domain	binding, competition with immobilised ligand	1 µM		98
Nc1ncc2c(n1)-c1c([nH]c3ccc(C4=CCOCC4)cc13)CCC2	RPS6KA3 C-terminal kinase domain	binding, competition with immobilised ligand	1 µM		100
COc1cc(Nc2nccc(-c3cnn4nc(OC)ccc34)n2)cc(C(F)(F)F)c1	RPS6KA3 C-terminal kinase domain	binding, competition with immobilised ligand	1 µM		70

Some of these lines once more:
Compound	target	test	conditions	how to read	remaining binding [%]
COc1cc(Nc2nccc(-c3cnn4nc(OC)ccc34)n2)cc(C(F)(F)F)c1	RPS6KA3 C-terminal kinase domain	binding, competition with immobilised ligand	1 µM		70
